Assay results collected from several papers.
Every numbered part comes from another study and shows a few of its results, in no order. “And” joins repeats or separate records; there may be more than shown. Changes are numbered by the printed parent chain.

Study 1
Target: CCNB1, cyclin fold, Cln2 fusion (human)
Technique: yeast growth competition, sequencing
Sample: yeast
Setting: weak parent motif
Baseline: not given
Direction: higher = stronger binding
Parent: CDT1 docking peptide (human); PPARRRLRLSVDE
Variant | normalised enrichment score
PPARRRLALSVDE [R8A] | 1.02
PPARRRLRASVDE [L9A] | 0.762
PPARKRLRFSVDE [R5K L9F] | 0.842
PPARARLRLSVDE [R5A] | -0.408
PPARRRLRLSVDA [E13A] | 1.09
APARRRLRLSVDE [P1A] | 0.532
PPARRRLRLSADE [V11A] | 0.416

Study 2
Target: Interferon regulatory factor 5, full length, phosphomimetic (IRF5, Homo sapiens, UniProt Q13568-2, residues 1-514, S451D/S453D/S456D/S462D)
Technique: protein-binding microarray
Form: double-stranded DNA, one strand shown
Sample: in vitro
Concentration: 940 nM top
Setting: 60-bp whole probe
With: salmon DNA 0.4 mg/ml
Baseline: random background probes
Direction: higher = stronger binding
Constant ends, left off below: GCCTAGCAC … GTCTTGATTCGCTTGACGCTGCTG
Sequence | fitted relative affinity [z-score]
GACGATTTCGGGTATCGAGGCGTGCTA | 1.35
GACGGACGGGACTATCGGGACGTGCTA | -0.292
TTAGGACTGTTACTGCTTTAGTGCTAG | -0.0141
GACGGTTCCGGTTCCGGGACGTGCTAG | 2.89
GACGGTTTCGGGTATAGGGACGTGCTA | 9.05
TCATGACTCCCTCTCTGACTGTGCTAG | 0.456
TTAGATATCAGTCTCGACTAGTGCTAG | 1.45
GACGGTTTCGGTCTCGGAACGTGCTAG | 13.6
TTAGATTTCGGGATTCGATTAGTGCTA | 0.812
AACGATCTCAGTATCGAGACGTGCTAG | 2.06
GACGATATCAGACCGGAGACGTGCTAG | -0.203
TTAGGTTCCCTTTTCCTCTAGTGCTAG | 0.735
TACGGTATCGGACTGGGGACGTGCTAG | 2.29
TTAGAACTGTGGACTGGATTAGTGCTA | -0.479
AGTGTTACCCCTCATCAACCAGTGCTA | 0.687
TGTACTCTCTACATGGGCTTGTGCTAG | 1.09
TCACCTCTAGACTCTAAAACTGTGCTA | 0.578
AGTTCTAAGGATTTCAGTTTGTGCTAG | -0.242
CTTGGCAAGATGAGGAAGATGTGCTAG | -0.615
TGGAGAGTAGCTTTCTGAGGGTGCTAG | -0.412
GGCTGTTTGGTTCTGATCCTGTGCTAG | 0.0995

Study 3
Target: RNA binding protein fox-1 homolog 2, RRM domain, GST-SBP tag (RBFOX2, Homo sapiens, UniProt O43251-10, residues 100-194)
Technique: RNA Bind-n-Seq
Form: RNA
Sample: in vitro
Concentration: 365 nM
Setting: natural RNA segment, single round, ends assumed
Baseline: no-protein control
Direction: higher = stronger binding
Constant ends, left off below: GGGAGUUCUACAGUCCGACGAUC … UGGAAUUCUCGGGUGCCAA
Residues (chain): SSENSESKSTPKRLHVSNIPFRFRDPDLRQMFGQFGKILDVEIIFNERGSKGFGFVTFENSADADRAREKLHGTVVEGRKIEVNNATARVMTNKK
Sequence | RBNS enrichment (R)
AGCUGCUGUGAGCCAUGUCCUUGUGUGUGUCUGUUCACUCUUAGGAGCCACGCCCAAGGCGAGACUUCCAGCCCCAACACCCACUUUGGAAGCCCUGUGGCCACAUGUAU | 0.349
GCCACAGGGACCCAAGCAGUCGAGGUCUUUAAUGUGCCUGGAGAUGACUCUCUGCUAUUCAUGAAUCUUGCUAUUGCACAAACCCUAUCAAGAGCUGCUGCUUCCCUUCC | 0.738
AUUGACCUUUUUACAAAGUUUGAUCCCCAAGCAUCCUCAACUAAAUCAUUGAAUACUUCAAUCAGGAUAUUAUCUGCUUUACUUUACAAAUAAAACCAAAUCUUUUGUCA | 0.681
UAGAUCUGUGCUCUGGAGGUGGUCUGCGUGAUUAGUGUUAGUGUAUGGUUUGGUGGUCUUUAAUGUUUUGAAAAACGGAAGUGAUUAGAAGUUAAGUUACUGUUCAAAGU | 2.2
UUUUGCAUUCAAAGGACAUCCACAUCUGUUGGAAGACUUUUAAGUGAGUUUUUGUUCUUAGAUAACCCACAUUAGAUGAAUGUGUUAAGUGAAAUGAUACUUGUACUCCC | 0.843
CUAUUAAAAAUCAGAUUGAAAAGUUUUGAGAAAAUGUUAUUUUUACUGAAAGCAAGCAGUGGCCUAUAAAGAACAUUCUUAGGAGCCUUUUCUAUUUGCGUUCAAAACUG | 0.452
GCCCUUGUCAGCACUUCUUUUUUUAUACCUCCUCUCAAGGCCACGUAAGUUACCUAGCUCUACCUGACUGUGGAUAAAAGACAGUGCUCUACCCACCUGGUGGACCCAGG | 0.292
AGGCUUCAAGCUGCUAAACACCUUCGAGGGCAGUGGCCUCAUCAGUCUGCCAGGGAGACAAGUACACACCUUGACUCUCAAGUUGGCAGCCCAGCCUGAAGUAGAGCUCU | 0.352
CAAACUCUGUUUUAAGGUUGAGAAAGUUUCAAGGGUGAAGAUCUCAAAACAGUGCUAAAAUCAAAGGUGUUUGCUGUGAAGAAAAACAUGUGUAUAUAUUGCACCUUGAG | 1.22
AGCCUUCGCACUCAAUGCCAACUUUUUGUUACAGAUUAAUUUUUCCAUAAAACCAUUUUUUGAACCAAUCAGUAAUUUUAAGGUUUUGUUUGUUCUAAAUGUAAGAGUUC | 0.499
UCAUUAAAAAACAAAUUCAGAUGAAAUAUCAGUAACUGUCUUGGACAGUGCUGAAAUCAGGUGGUUAAACGGGUAAACAAAAUAUACUGUAUUUUGAGAAAUGGCACAAA | 0.316
UUUCUGUUACACAUAUGGUUUUGAUUUAUUUACAAUAUAUGCUGUGCCAUUUUGAUUUUUAUUUUGGUUGGUUGGUUGAAUAAAUAUGCGACACUCAGAACACUUGAGGU | 0.677

Study 4
Target: RING finger protein unkempt homolog, zinc fingers 1-6, GST-SBP tag (UNK, Homo sapiens, UniProt Q9C0B0, residues 30-357)
UniProt Q9C0B0, sequence (30-357, looked up): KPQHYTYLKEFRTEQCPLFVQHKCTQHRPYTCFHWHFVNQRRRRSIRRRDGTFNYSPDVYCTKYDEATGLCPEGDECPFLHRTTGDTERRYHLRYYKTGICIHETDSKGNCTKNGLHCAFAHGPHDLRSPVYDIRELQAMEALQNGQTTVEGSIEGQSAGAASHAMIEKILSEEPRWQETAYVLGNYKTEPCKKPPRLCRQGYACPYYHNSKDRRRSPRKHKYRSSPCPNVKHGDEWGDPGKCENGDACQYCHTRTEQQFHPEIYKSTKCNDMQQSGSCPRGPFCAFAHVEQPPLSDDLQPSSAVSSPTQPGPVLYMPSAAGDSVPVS
Technique: RNA Bind-n-Seq
Form: RNA
Sample: in vitro
Concentration: not given
Setting: RNA with constant flanks, human and mouse sites, ends assumed
Baseline: input RNA pool
Direction: higher = stronger binding
Constant ends, left off below: GGGAGUUCUACAGUCCGACGAUC … CAACAGAGGAUUGAGCAUCA
Sequence | bound/input enrichment [ratio]
UUUCCGGUCCUUCCUGGGCAAAUCUAAGCCUUGGCCAGGGCCGAAGUUUAGGCCCCUGUCUUGUUCAUGUAGCCGAGGGGCAGGCGGGGGACCUCUACACCUCUGCUGUGGGCACGGGGC | 0.186
AGCUGGGCAGGGGGUAACUUUACUGAUUUGGGGGUGGUUUUUAGUUUAAUUUUUCUUUUCUAGCUUCCCAUCGACGGUCAGUGCGCACGUUGUAAUCAGCUGAGGCCAUGUCAGGAGACG | 6.73
AAGAACCCCACCACCAGAGAAGUUGGCACACUUGUCCAGCUUGGAGGAGCCAGCUCGGGGGUCAAGCACAGCCCACCCUGCCCCAGGCAUCAUGUGAUGGACUUUUCUGUAUCUGCCCUC | 0.142
UUUGCUGAACUGGACAAAGUGAUGGGCCCUCUCAUCUUUAAUGCAAGCAUCAUGACAGAUCUGGCUCGUUACACCCGGCAGGGACUGCAUUGGCUUCGGCAGGAUGCCAAGCUGAUAUCU | 0.141
UCUUCUCUUUUUGGAAUUUUAUCUCCUAGUAGUGAUCUCACACUUUCAAGUGUUCUCUGGGAUAGAGAGAGAUCAAGCUUUUAUAGCCUGACGAGUUCAAACAUCAGUAAAUGGGAAUUA | 0.634
GGGUGGUGGGUGUGUGUGUGUGUGUGUGUGUGUGUGUGUGUGUGUGUGUUUGGCUGUGGGUUAGUUGUGCCGUUCUGCUGGAACACCGUGGGAAGGCAGUAGACGCGGGCAGUCAGCUAG | 0.67
CACAGAGGAGACCUCCUGUUCCUCACAAAUUUCCGGGAAGACCCAAUCAGAGCUGGUGAAAUAGUUGUUUUUAAAGUUGAAGGACGAGACAUUCCAAUAGUUCACAGAGUAAUCAAAGUU | 3.82
GGGCGCGGCGUCCGGGUGGCGCUCGCCACUCGGGCGGUGGCGCGGGCGCCCAGGGCAGACACUAGGGUAAUCCGGAGGCGCGGCCCUGGAAUUAGACCGACAGCGGGGCUGAGGCUGAGG | 0.218
GAGCUUAAAGAAGUGGAGCCCAAAUUAGCCGCCUGGAUCCAAAAACUUAAUAGCUUUGGCUUAGAUGCCACAGGAACUUUCUUUUCUCGUUAUGGAGCAUCUCUUAAACUGCUUGAUUUU | 0.758
AUUGCUUCCUGGUAGUGUGGAAGAAACACAAGACCCUCAUUCCCAUUUCCAUUUCCAUUGUAGUCAAAGGUAUUGGCUUAGGUUUCUCCCGUGCUCCUUUCAUCCCCUCCCUGCCUGAGC | 0.83
AUCCAUGACCUCGCAUGCCACGCUGUCACCAUCUGCAGUCCAGAUUAUUUGCUGGAUGUUUUAGAACUAAGUAAAUACACUUUAACCGCUGUGGAGCUUUGCAGACAAUGCCAGAUGGAU | 0.886

Further values, each from its own experiment
Molecule | target | test | system | setting | how to read | quantity | result
PhoQ, residues 284 288 289 292 302 303 ASTSDA | PhoP, residues 12 14 15 18 19 LWHSL (Escherichia coli, UniProt P23836) | Sort-seq, refers to: YFP reporter | E. coli | PhoQ-PhoP variant library, with: 10 µM Mg2+ | baseline: high Mg2+ state, higher = stronger signaling | fold induction | 16.2 and 20.6
